Results collected from several papers.
Numbered parts are unrelated; each lists some results of a single study. Several values in a cell are separate wells, animals, samples, runs or records.

Study 1 — read-out: enzyme activity; action: inhibitor; concentration: 0.5 µM; reference: control; measurement: remaining activity
Target: Cyclin-dependent kinase 2, with cyclin A (CDK2, Homo sapiens, UniProt P24941)
Compound = CN(C)C[C@H]1CCn2c(c(C3=C(c4cn(C)c5ccccc45)C(=O)NC3=O)c3ccccc32)C1; value = 76.2%
Compound = O=C1c2ccccc2-c2n[nH]c3cccc1c23; value = 76.1%
Compound = Nc1cccc(-c2cc3c(Oc4cccc(O)c4)ncnc3[nH]2)c1; value = 88.5%
Compound = O=C1c2ccccc2-[n+]2ccc3c([nH]c4ccccc43)c21; value = 72.4%
Compound = CCN(CC)C(=O)c1ccc(Nc2nc(OCC3CCCCC3)c3[nH]cnc3n2)cc1; value = 55.8%
Compound = O=C(Nc1cccc(Nc2nccc(Nc3cccc(C(F)(F)F)c3)n2)c1)C1CC1; value = 98.2%
Compound = O=C1C(Cl)=C(N2C(=O)CCC2=O)C(=O)c2ccccc21; value = 109%
Compound = CCOc1nc(NC(=O)Cc2cc(OC)ccc2OC)cc(N)c1C#N; value = 104%
Compound = CCN(CC)CCNC(=O)c1c(C)[nH]c(/C=C2\C(=O)Nc3ccc(Cl)cc32)c1C; value = 92.8%
Compound = Cc1cn(-c2cc(NC(=O)c3ccc(C)c(Nc4nccc(-c5cccnc5)n4)c3)cc(C(F)(F)F)c2)cn1; value = 95.5%
Compound = CN([C@@H](Cc1ccc(OS(=O)(=O)c2cccc3cnccc23)cc1)C(=O)N1CCN(c2ccccc2)CC1)S(=O)(=O)c1cccc2cnccc12; value = 99.8%

Study 2 — cell line: mouse MPNST tumor cells; technique: high-content nuclear imaging; refers to: cell number; concentration: 10 µM; time: 12 h; notes: mean of 2 replicates; reference: plate mean; reading: higher = more cells; measurement: nuclei count
Compound = CC(=O)O[C@H]1C[C@@]2(C)[C@@H](C[C@@H](O)[C@H]3[C@@]4(C)CC[C@@H](O)[C@@H](C)[C@@H]4CC[C@@]32C)/C1=C(\CCC=C(C)C)C(=O)O; value = 0.492 z-score
Compound = CN(C)CCC(c1ccc(Cl)cc1)c1ccccn1 (stereo not shown); value = 2.88 z-score
Compound = CC(CCc1ccccc1)NCC(O)c1ccc(O)c(C(N)=O)c1 (stereo not shown); value = 1.86 z-score
Compound = CC(=O)O[C@]1(C(C)=O)CC[C@H]2[C@@H]3C=C(C)C4=CC(=O)CC[C@@H]4[C@H]3CC[C@@]21C; value = 0.505 z-score
Compound = Cc1nc(N)c2nnn(C[C@H]3CN(Cc4nccs4)CCO3)c2n1; value = 0.523 z-score
Compound = O=C(c1ccc(F)cc1)N1CCc2nc(COc3ccccc3)oc2C1; value = 1.08 z-score
Compound = Nc1ccc(C(=O)NCC(=O)O)cc1; value = -0.165 z-score
Compound = CC(C)(NS(=O)(=O)c1ccc(Oc2ccc(F)cc2)cc1)C(=O)NO; value = 1.33 z-score
Compound = CCc1c(C)[nH]c2c1C(=O)C(CN1CCOCC1)CC2 (stereo not shown); value = 0.0903 z-score
Compound = CC1(C)O[C@@H]2[C@@H](CO[C@@]3(COS(N)(=O)=O)OC(C)(C)O[C@@H]23)O1; value = 1.89 z-score and 0.771 z-score and 1.27 z-score
Compound = CCS(=O)(=O)Nc1ccc2[nH]c(O)c(C(=Nc3ccc(CN4CCCCC4)cc3)c3ccccc3)c2c1; value = -4.3 z-score

Study 3 — host: human patients; sample: plasma; measurement: mean concentration
SMILES: COc1ccc(-c2c(Nc3ccccn3)[nH]c3c(C4=CCCCC4)c(-c4ccccc4)nn3c2=O)cc1
test = refers to: S-adenosylmethionine; conditions = 100 mg once daily, 8 h; value = 21.6 ng/mL
test = refers to: S-adenosylmethionine; conditions = 200 mg once daily, 4 h; value = 14.6 ng/mL
test = refers to: methionine; conditions = 200 mg once daily, 0 h; value = 121000 ng/mL
test = refers to: S-adenosylmethionine; conditions = 150 mg once daily, 4 h; value = 23 ng/mL
test = refers to: S-adenosylmethionine; conditions = 150 mg once daily, 2 h; value = 23.1 ng/mL
test = refers to: methionine; conditions = 100 mg once daily, 6 h; value = 93700 ng/mL
test = refers to: methionine; conditions = 150 mg once daily, 6 h; value = 124000 ng/mL
test = refers to: methionine; conditions = 400 mg once daily, 6 h; value = 84600 ng/mL
test = refers to: methionine; conditions = 200 mg once daily, 2 h; value = 121000 ng/mL
test = refers to: methionine; conditions = 150 mg once daily, 2 h; value = 137000 ng/mL
test = refers to: S-adenosylmethionine; conditions = 150 mg once daily, 8 h; value = 20.2 ng/mL

Study 4 — read-out: binding; technique: radioligand binding; measurement: Ki
Target: Alpha-1D adrenergic receptor (ADRA1D, Homo sapiens, UniProt P25100)
UniProt P25100, sequence (whole entry, looked up): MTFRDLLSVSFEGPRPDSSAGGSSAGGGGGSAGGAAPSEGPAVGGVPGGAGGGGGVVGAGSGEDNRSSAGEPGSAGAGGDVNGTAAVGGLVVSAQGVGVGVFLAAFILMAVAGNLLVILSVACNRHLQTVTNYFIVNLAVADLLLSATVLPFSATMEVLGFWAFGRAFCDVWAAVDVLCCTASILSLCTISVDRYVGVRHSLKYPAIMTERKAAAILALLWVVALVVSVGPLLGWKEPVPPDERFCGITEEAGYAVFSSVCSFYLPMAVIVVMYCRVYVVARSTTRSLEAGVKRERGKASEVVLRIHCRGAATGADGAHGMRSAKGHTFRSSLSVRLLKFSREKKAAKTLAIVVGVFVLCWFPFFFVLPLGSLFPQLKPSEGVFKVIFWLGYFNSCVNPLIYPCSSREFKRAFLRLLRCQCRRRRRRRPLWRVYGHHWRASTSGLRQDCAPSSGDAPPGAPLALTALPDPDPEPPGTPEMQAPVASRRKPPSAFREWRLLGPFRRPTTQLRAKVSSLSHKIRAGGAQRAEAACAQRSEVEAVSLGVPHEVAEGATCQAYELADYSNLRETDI
Compound = O=C(NS(=O)(=O)c1ccc(NCC2CCOCC2)c([N+](=O)[O-])c1)c1ccc(N2CCN(Cc3ccc(C(F)(F)F)cc3-c3ccc(Cl)cc3)CC2)cc1Oc1cnc2[nH]ccc2c1; value = > 10 µM
Compound = CN([C@@H]1CCc2c(CC(=O)O)c3ccccc3n2C1)S(=O)(=O)c1ccc(F)cc1; value = > 10 µM
Compound = CC(=O)N1CCC(c2ccc(C(=O)NC3=NCCN3)cc2C(F)(F)F)CC1; value = > 10 µM
Compound = CC(=O)N1CCC(c2ccc(C(=O)NC(=N)N)cc2C(F)(F)F)CC1; value = > 10 µM
